Literature values that unrelated publications cite.
Values joined by “and” are separate records of one study, mostly repeats; a detail may differ. ± marks the error that the study gave.

CC(C)C[C@H](NC(=O)[C@H](C)NC(=O)[C@H](CCC(=O)O)NC(=O)[C@H](Cc1c[nH]c2ccccc12)NC(=O)CNC(=O)[C@H](CCCNC(=N)N)NC(=O)[C@H](CCCNC(=N)N)NC(=O)CN)C(=O)N[C@@H](CCCCN)C(=O)N[C@@H](Cc1ccc(O)cc1)C(=O)O  IC50 (Mamu-B*08 MHC class I; peptide binding, competitor, competitive binding): 1880 nM
CN(C)c1ccc(/C=C/C(=O)N[C@@H](Cc2ccccc2)C(=O)N[C@H](C=O)C[C@@H]2CCNC2=O)cc1  IC50 (enterovirus 71 3C protease; enzyme activity, inhibitor): < 500 nM
CC[C@H](C)[C@H](NC(=O)[C@@H](NC(=O)[C@@H](NC(=O)[C@H](CCCNC(=N)N)NC(=O)[C@@H](N)CCCCN)C(C)C)C(C)C)C(=O)N[C@@H](CC(N)=O)C(=O)N[C@@H](CCCCN)C(=O)N[C@@H](CC(=O)O)C(=O)N[C@H](C(=O)O)[C@@H](C)O  IC50 (Mamu-B*08 MHC class I; peptide binding, competitor, competitive binding): 12500 nM
O=C[C@H](C[C@@H]1CCNC1=O)NC(=O)[C@H](Cc1ccccc1)NC(=O)/C=C/c1ccc(Cl)cc1F  IC50 (enterovirus 71 3C protease; enzyme activity, inhibitor): < 500 nM
COc1c(O)cccc1C(=O)C1CCN(CCc2ccc(F)cc2)CC1  IC50 (5-HT2A receptor (human); calcium release, antagonist; CHO cells expressing human 5-HT2A): 2.3 nM
CC(C)[C@@H]1NC(=O)[C@H](CCCCN)NC(=O)[C@@H](Cc2c[nH]c3ccccc23)NC(=O)[C@H](Cc2ccc(O)cc2)NC(=O)[C@@H](NC(=O)[C@H](N)Cc2ccc3ccccc3c2)CSSC[C@@H](C(=O)N[C@@H](Cc2ccc3ccccc3c2)C(N)=O)NC1=O  IC50 (mouse GRP receptor; binding; literature species comparison): > 10000 nM
O=C(OCC[18F])C1C2CCC(CC1c1ccc(/C=C\I)cc1)N2 (centres unmarked)  time to peak uptake (SERT; microPET; anaesthetised, medulla): 85 min
O=C1C[C@@H]2COc3ccc(OCCN4CCCC4)cc3C2=NN1c1ccccc1  IC50 (butyrylcholinesterase, horse; enzyme activity, inhibitor): 8300 nM
CC[C@H](C)[C@H](NC(=O)[C@H](Cc1c[nH]c2ccccc12)NC(=O)[C@H](CCCNC(=N)N)NC(=O)[C@@H](N)CCCNC(=N)N)C(=O)N[C@@H](CCC(N)=O)C(=O)N[C@@H](CC(C)C)C(=O)NCC(=O)N[C@@H](CC(C)C)C(=O)N[C@@H](CCC(N)=O)C(=O)N[C@@H](CCCCN)C(=O)O  IC50 (Mamu-B*03 MHC class I; peptide binding, competitor, competitive binding): 12 nM
CN(CCCCCNc1c2c(nc3ccccc13)CCCC2)C1CCC(c2ccc(Cl)c(Cl)c2)c2ccccc21 (centres unmarked)  IC50 (acetylcholinesterase, Electrophorus electricus): 8 nM
CC(C)(C)OC(=O)N1CCN(C(=O)CCCc2c[nH]c3ccccc23)CC1  IC50 (5-lipoxygenase; inhibitor, cell-based): < 1000 nM
C#CCN(C)Cc1cc2cc(OCCCN3CCCCC3)ccc2n1C  IC50 (butyrylcholinesterase, human; inhibitor): 1690 nM
CC(=O)SCC(=O)NCCCCCC(=O)Nc1ccccc1  IC50 (total HDAC; HeLa nuclear extract): 22000 nM and 20100 nM
Nc1nc(=O)n(C2CCCS2)cc1C#CCNS(=O)(=O)C1CC1 (centres unmarked)  IC50 (IspE Klebsiella pneumoniae; enzyme activity, inhibitor): 7700 ± 1450 nM
Cc1cc(-n2c(=O)ccc3cnc4[nH]ccc4c32)ccc1F  IC50 (STK16; enzyme activity): 295 nM
CC[C@H](C)[C@H](N)C(=O)N[C@@H](CCCNC(=N)N)C(=O)N[C@@H](CC(C)C)C(=O)N[C@@H](CCCNC(=N)N)C(=O)N1CCC[C@H]1C(=O)NCC(=O)NCC(=O)N[C@@H](CCCCN)C(=O)N[C@@H](CCCCN)C(=O)O  IC50 (Mamu-B*08 MHC class I; peptide binding, competitor, competitive binding): 2200 nM
O=C1[C@@H]2CCCN2[C@H](c2ccc([N+](=O)[O-])cc2)N1c1ccc([N+](=O)[O-])cc1  IC50 (dengue virus 2 NS2B-NS3 protease; inhibitor): inactive
N#CC1CC2CC2N1C(=O)C1CC(NS(=O)(=O)c2ccc(Cl)cc2)CN1 (centres unmarked)  IC50 (DPP-IV; enzyme activity, inhibitor): 6.7 nM
C#CCN(C)[C@H](C)c1ccc(/C=[N+](\[O-])C(C)(C)C)c(OC(=O)N(C)CC)c1  IC50 (monoamine oxidase B; inhibitor; racemate): 1050 ± 160 nM
CCn1c(CC(=O)N2CCN(c3ccccc3)CC2)nc2sc3c(c2c1=O)CCCC3  IC50 (AChE): 70 nM
CO[C@H]1CC=C2CCN3CCC4=C(CC(=O)CC4)[C@]23C1  IC50 (α4β2 nicotinic acetylcholine receptor; inhibitor): 370 nM
CNC(=O)Oc1cccc(CN(C)CCCCCOC(=O)/C=C/c2ccc(O)c(OC)c2)c1  IC50 (BChE): 660 nM
CC(C)[C@@H]1NC(=O)[C@H](CCCCN)NC(=O)[C@@H](Cc2c[nH]c3ccccc23)NC(=O)[C@H](Cc2ccc(O)cc2)NC(=O)[C@@H](NC(=O)[C@H](N)Cc2ccc3ccccc3c2)CSSC[C@@H](C(=O)N[C@@H](Cc2ccc3ccccc3c2)C(N)=O)NC1=O  IC50 (bombesin receptor BB2; concentration not given): 4570 nM
CCN(CC)CCNC(=O)c1ccc(CN2CCc3ccccc3C2)cc1  IC50 (butyrylcholinesterase; enzyme activity, inhibitor): 17900 nM
COc1cc(/C=C/C(=O)N2CCC(Cc3ccccc3)CC2)ccc1OCCCCN(N1CCCc2ccccc21)N1CCCc2ccccc21  IC50 (BChE): 8.9 nM
Nc1ccc2oc(CN3CCN(c4ccc(Br)cc4)CC3)nc2c1  IC50 (Electrophorus electricus acetylcholinesterase; enzyme activity, inhibitor): 52 ± 10 nM

Some of these lines once more:
CC(C)(C)OC(=O)N1CCN(C(=O)CCCc2c[nH]c3ccccc23)CC1  IC50 (5-lipoxygenase; inhibitor, cell-based): < 1000 nM
C#CCN(C)Cc1cc2cc(OCCCN3CCCCC3)ccc2n1C  IC50 (butyrylcholinesterase, human; inhibitor): 1690 nM
CC(=O)SCC(=O)NCCCCCC(=O)Nc1ccccc1  IC50 (total HDAC; HeLa nuclear extract): 22000 nM and 20100 nM
Nc1nc(=O)n(C2CCCS2)cc1C#CCNS(=O)(=O)C1CC1 (centres unmarked)  IC50 (IspE Klebsiella pneumoniae; enzyme activity, inhibitor): 7700 ± 1450 nM
